Experimental data collected from several papers.
Each line is one published result; not all experiments were run side by side.
Target: Mu-type opioid receptor (Oprm1, Rattus norvegicus, UniProt P33535)
Chain of UniProt P33535 (whole entry, looked up): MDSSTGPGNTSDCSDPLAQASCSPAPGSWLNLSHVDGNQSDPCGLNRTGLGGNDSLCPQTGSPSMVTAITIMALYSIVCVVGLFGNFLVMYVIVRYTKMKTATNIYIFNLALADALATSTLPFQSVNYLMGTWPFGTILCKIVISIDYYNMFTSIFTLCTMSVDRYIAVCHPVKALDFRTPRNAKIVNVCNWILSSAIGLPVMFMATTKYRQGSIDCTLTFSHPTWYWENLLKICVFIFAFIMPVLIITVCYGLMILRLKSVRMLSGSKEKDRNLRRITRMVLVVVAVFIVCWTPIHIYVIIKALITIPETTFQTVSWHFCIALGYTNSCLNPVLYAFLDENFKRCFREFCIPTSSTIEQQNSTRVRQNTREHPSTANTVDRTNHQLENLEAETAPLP
Mode: agonist

CC(C)C[C@H](NC(=O)[C@H](Cc1ccc2ccccc2c1)NC(=O)CNC(=O)[C@H](NC(=O)[C@@H](N)Cc1ccc(O)cc1)[C@H](C)O)C(=O)N[C@@H](CO)C(N)=O
EC50 (GTPγS binding, radiometric; cell membranes): 0.013 µM

CC(=O)N1CCC(NC(=O)C(N)Cc2c(C)cc(O)cc2C)c2cc(CN3CCC4CCCCC4C3)ccc21 (stereo not drawn)
EC50 (GTPγS binding, radiometric; cell membranes): 0.04 µM

CC(C)C[C@H](NC(=O)[C@H](Cc1ccc2ccccc2c1)NC(=O)CNC(=O)[C@H](NC(=O)[C@@H](N)Cc1ccc(O)cc1)[C@H](C)O)C(=O)N[C@@H](CO[C@@H]1O[C@H](CO)[C@@H](O)[C@H](O)[C@H]1O)C(N)=O
EC50 (GTPγS binding, radiometric; cell membranes): 0.11 µM

Cc1cc(O)cc(C)c1CC(N)C(=O)NC1CCNc2c(F)cc(Cc3ccccc3)cc21 (stereo not drawn)
EC50 (GTPγS binding, radiometric; cell membranes): 0.0016 µM

Cc1cc(O)cc(C)c1CC(N)C(=O)NC1CCNc2ccc(Cc3cccnc3)cc21 (stereo not drawn)
EC50 (GTPγS binding, radiometric; cell membranes): 0.093 µM

CCc1cc(Cc2ccccc2)cc2c1NCCC2NC(=O)C(N)Cc1c(C)cc(O)cc1C (stereo not drawn)
EC50 (GTPγS binding, radiometric; cell membranes): 0.0062 µM

Cc1cc(O)cc(C)c1CC(N)C(=O)NC1CCNc2ccc(CN3CCCCC3)cc21 (stereo not drawn)
EC50 (GTPγS binding, radiometric; cell membranes): 0.009 µM

CCCC[C@@H]1NC(=O)[C@H](Cc2ccccc2)NC(=O)CNC(=O)[C@H](NC(=O)[C@@H](N)Cc2ccc(O)cc2)C(C)(C)SSC(C)(C)[C@@H](C(=O)N[C@@H](Cc2c[nH]c3ccccc23)C(=O)NCc2cc(C(F)(F)F)cc(C(F)(F)F)c2)NC(=O)[C@@H]2CCCN2C1=O
EC50: 2.14 µM

Cc1cc(O)cc(C)c1CC(N)C(=O)NC1CCNc2c(CN3CCOCC3)cc(Cc3ccccc3)cc21 (stereo not drawn)
EC50 (GTPγS binding, radiometric; cell membranes): 0.0018 µM

For quick reference, copied from above:
CC(C)C[C@H](NC(=O)[C@H](Cc1ccc2ccccc2c1)NC(=O)CNC(=O)[C@H](NC(=O)[C@@H](N)Cc1ccc(O)cc1)[C@H](C)O)C(=O)N[C@@H](CO[C@@H]1O[C@H](CO)[C@@H](O)[C@H](O)[C@H]1O)C(N)=O
EC50 (GTPγS binding, radiometric; cell membranes): 0.11 µM
